Published values gathered from unrelated publications.
Parts stem from different laboratories: compare values within a part only.

Series 1
Target: PABPC1L2, full length, GST fusion (mouse, UniProt A0ABA7IW68)
Technique: RNAcompete
Molecule type: RNA
Sample: in vitro
Tested at: 20 nM
Setting: 7-mer, probes averaged, single round
Reference: mean of 7-mers
Direction: higher = stronger binding
Residues (chain): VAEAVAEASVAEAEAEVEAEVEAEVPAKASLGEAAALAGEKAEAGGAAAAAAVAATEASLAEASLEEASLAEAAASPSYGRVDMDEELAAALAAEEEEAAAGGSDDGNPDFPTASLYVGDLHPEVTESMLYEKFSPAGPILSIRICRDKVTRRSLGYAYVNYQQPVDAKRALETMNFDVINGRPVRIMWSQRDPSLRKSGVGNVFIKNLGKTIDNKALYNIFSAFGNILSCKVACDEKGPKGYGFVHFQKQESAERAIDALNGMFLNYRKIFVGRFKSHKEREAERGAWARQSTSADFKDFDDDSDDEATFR
Strand	7-mer Z-score
CAUUAAA	0.968
GGCGUUC	-0.0428
CGGUCAA	-0.184
CCCGUAC	-0.412
GAAUAGU	-0.17
UCUUUUU	-0.186
UUACAGU	-0.249
UAGUGAA	0.119
ACCAAAG	0.321
GUAAUAU	-0.141
UUACCCG	-0.175
UGGGUCG	-0.0174
UAUGGAC	0.0334
UUAACUC	-0.369
GACGAAU	-0.0772
AGCCGCG	-0.311
UAAACAA	3.34
GAGGGAG	0.26
CGCCCGU	-0.45
UCUGCAC	-0.11
UUCGACC	-0.374
AACCCAG	0.0189
GGUCGGA	-0.0355
CUGUUCC	-0.34
UCAGUAC	-0.226

Series 2
Organism: Saccharomyces cerevisiae
Observed: peptide binding
Technique: yeast competitive growth sequencing
Molecule type: peptide
Strain: cyclin F-Cln2 fusion
Tested at: concentration not given
Setting: library 2, Cln2-subtracted
Direction: direction not given
Sequence	binding score
LLRRLQDVANDRG	1.06
PPVIIKYIIINRF	1.25
GFGFLLFICKLTF	2.25

Series 3
Target: RNA binding protein fox-1 homolog 2, RRM domain, GST-SBP tag (RBFOX2, Homo sapiens, UniProt O43251-10, residues 100-194)
Technique: RNA Bind-n-Seq
Molecule type: RNA
Sample: in vitro
Tested at: 365 nM
Setting: natural RNA segment, single round, ends assumed
Reference: no-protein control
Direction: higher = stronger binding
All sequences stand within: GGGAGUUCUACAGUCCGACGAUC … UGGAAUUCUCGGGUGCCAA
Residues (chain): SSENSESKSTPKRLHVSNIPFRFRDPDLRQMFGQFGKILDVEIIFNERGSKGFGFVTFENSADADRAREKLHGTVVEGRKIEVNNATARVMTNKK
Strand	RBNS enrichment (R)
AAAAAUCUAUCUUUGAUACAUUUUAUUUUUAUGCCCUACUUAAUAUUUGCAUCAGUAUAAUAUAUAUCAGUGUGUCAUACAGAAAGAUAUGCUUCUGUAAUAUGAAAUAG	0.645
GAGAGGGGGAGGCCUGUGUCCUUCCAGCUUCAUUGCACAUGGUCCCCCUCCUGCAACCAGGCUACCUGAAGACCUUUAUGGAGGUGAAAGGGAAACUAAAUUGUUCCCUG	1.07
UUACAUUAUGUUCCUUUGGAUAAAUUGUGAUUUGACAACUGAUUUCAAUAAAAAUAUUUGCUUCACUAUAUUCACUGUUUUUUUAUUAAAUACUGAGGGGCCUGGAUCAC	0.672
GUAAUAUCAGUGUAAGUAAAAUCCUGAUUCCAUAAACCUGGUUGUAUUUAAAACAAAAAACAAAACUACAAUGAAACUUGGGAGUCCUUUUCAUGUAGAGGAAGGUUAUC	0.555
AGCACUUACAUCUCUAUUGCUUUAACAGAAGGAUACUACUUCAGGAAAAUAUAUGUAAUAUGUAAAAAUAUGAAUGACUAUGUAUUCAAUAAAAAUAAUAUAGCACUGUA	0.694
AGGACCCAGCCCUCGCCUCUGCGAGAAUGAACAUAUUUGAUAGAUUUUUCUUAACAAGUUAGAAAAUUCAGCUCCUUUCUGUCCUGGAGCUAGCAAAGACUUGUGUGAUG	0.531
AGUUUUCUUUAAGUAGCCUGUGCAGUCAUGCAUGUGCCUGAGUUGUCUGGAGCAGAGGCAAACAUCUGACUUCAUUCUUAGCCCCAAGCUGCCAUUUCUGAGUCCUUGAG	1.87
AUAGCAGCUGAAUGCAUGCAUGACUUUGAGGGAAGUUAAGACUGGUUUUCUUUUCCCAUCUCUGCACAUUGAAAAACCAAGCCAAGUCUAUUUGCCAAUGAUAGAUCACU	3.89
UUGUUUAAAAACCAAAUAAGCAUCUGUGUAACCUCCACAGUAGCAUUUCUUAUUUGUUUGGUCACUGCUACACCUUAGCAGCUCUUCCCCUUUCCUGGGGGAUGUGCACG	0.543
CACCCCUGCCCAUUUUCUGUCUUUAAUUAACCAAGGUGUUAGGUGUGACUGUCACAACUGUUAUGUUUUCCAGUAAACUAGAAGUACGAUAUUUGAUAAUUAUAUUUGUA	0.84
GCUCUCAAUCCCCAACAUUUGAUAGUCUUAGCAUUUAAACAAAAUCUCCGAGUGAGGGAGGCCAGCCCCCACAUUUGUCCUCUGCAGGCUCAUUUUGUUGAGCGUCUGCU	1.51
CACCCCGUGCCUCCUGCCUCCGCGCAGCCUGCAGCGGGAGACCCUGUCCCCGCCCCAGCCGUCCUCCUGGGGUGGACCCUAGUUUAAUAAAGAUUCACCAAGUUUCACGC	0.277

Series 4
Target: FOXO3, forkhead domain (mouse, UniProt Q9WVH4, residues 31-263)
Chain of UniProt Q9WVH4 (31-263, looked up): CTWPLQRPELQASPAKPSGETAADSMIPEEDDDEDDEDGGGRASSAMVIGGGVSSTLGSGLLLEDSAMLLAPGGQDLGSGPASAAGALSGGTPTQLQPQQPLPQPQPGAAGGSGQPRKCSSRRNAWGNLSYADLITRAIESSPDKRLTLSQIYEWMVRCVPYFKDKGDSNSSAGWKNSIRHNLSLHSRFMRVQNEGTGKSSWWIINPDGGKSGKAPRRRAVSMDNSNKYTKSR
Technique: protein-binding microarray
Molecule type: hairpin DNA
Sample: in vitro
Tested at: not given
Setting: whole hairpin DNA, median over replicate spots
Reference: not given
Direction: higher = stronger binding
Strand	median fluorescence
GAGGCCATGCAGACAACGCCTCCTGGCGTTGTCTGCATGGCCTCACACTC (5mC at 33)	4620 a.u.
GAGGCCAGGCAAACAACGCCTCCTGGCGTTGTTTGCCTGGCCTCACACTC	5360 a.u.
GAGGCCATGCAAACGACGCCTCCTGGCGTCGTTTGCATGGCCTCACACTC (5mC at 14 30)	4750 a.u.
GAGGCCATGCAAACCGCGCCTCCTGGCGCGGTTTGCATGGCCTCACACTC (5mC at 29)	4930 a.u.
GAGGCCACGTAACCAACGCCTCCTGGCGTTGGTTACGTGGCCTCACACTC (5mC at 8)	4280 a.u.
GAGGCCACGTAACCAACGCCTCCTGGCGTTGGTTACGTGGCCTCACACTC (5mC at 8 36)	4250 a.u.
GAGGCCATGCAAGCAACGCCTCCTGGCGTTGCTTGCATGGCCTCACACTC	4600 a.u.
GAGGCCATGTAAACGACGCCTCCTGGCGTCGTTTACATGGCCTCACACTC (5mC at 14 30)	4610 a.u.
GAGGCCTTGCAAACAACGCCTCCTGGCGTTGTTTGCAAGGCCTCACACTC	4500 a.u.
GAGGCCATGTAATCAACGCCTCCTGGCGTTGATTACATGGCCTCACACTC	4030 a.u.
GAGGCCCGGTAACCAACGCCTCCTGGCGTTGGTTACCGGGCCTCACACTC	4780 a.u.
GAGGCCATGCAAACAAGGCCTCCTGGCCTTGTTTGCATGGCCTCACACTC	4770 a.u.
GAGGCCATGCAAACAACGCCTCCTGGCGTTGTTTGCATGGCCTCACACTC (5mC at 10)	6100 a.u.
GAGGCCATGTAAAGAACGCCTCCTGGCGTTCTTTACATGGCCTCACACTC (5mC at 31)	3490 a.u.
GAGGCCATGTAACCGACGCCTCCTGGCGTCGGTTACATGGCCTCACACTC (5mC at 30)	4190 a.u.
GAGGCCATGCCGACAACGCCTCCTGGCGTTGTCGGCATGGCCTCACACTC (5mC at 11)	4540 a.u.

Series 5
Target: Ras GTPase-activating protein-binding protein 1, full length (G3BP1, Homo sapiens, UniProt Q13283)
Chain of UniProt Q13283 (whole entry, looked up): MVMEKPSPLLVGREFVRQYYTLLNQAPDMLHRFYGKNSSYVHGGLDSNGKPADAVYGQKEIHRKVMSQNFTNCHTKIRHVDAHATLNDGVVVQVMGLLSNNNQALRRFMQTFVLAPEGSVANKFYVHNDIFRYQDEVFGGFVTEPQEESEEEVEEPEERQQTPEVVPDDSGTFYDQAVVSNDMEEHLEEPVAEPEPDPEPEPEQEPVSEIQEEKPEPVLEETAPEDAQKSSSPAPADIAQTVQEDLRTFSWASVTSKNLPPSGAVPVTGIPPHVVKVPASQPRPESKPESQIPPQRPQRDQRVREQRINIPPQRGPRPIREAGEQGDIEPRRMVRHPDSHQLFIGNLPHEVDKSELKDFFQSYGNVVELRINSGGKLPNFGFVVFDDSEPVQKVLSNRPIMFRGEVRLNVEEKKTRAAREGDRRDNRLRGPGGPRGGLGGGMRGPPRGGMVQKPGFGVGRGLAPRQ
Technique: RNA Bind-n-Seq
Molecule type: RNA
Sample: in vitro
Tested at: 200 nM
Setting: whole 134-nt RNA, ends assumed
Together with: 150 mM LiCl
Reference: input library
Direction: higher = stronger binding
All molecules: 7-deaza-guanosine replaces G
All sequences stand within: GGGAGUUCUACAGUCCGACGAUC … UGGAAUUCUCGGGUGUCAAGG
Strand	log2 enrichment
AAGUCCUGUGCUACACAUCGUAUGUACCGAAUCGGGAAAGGGGAAAGGGGAAAGGGAAAGUAUUAUGUUACGCCGUUCGGAUCUGCACUU	0.349
UCCUGUGCUACACAUCGUAUGUACCGAAUCGGGAAAAAAAGGGUUUUUGGGUUUUUGGGAAAGUAUUAUGUUACGCCGUUCGGAUCUGCA	-1.91
GUCCUGUGCUACACAUCGUAUGUACCGAAUCAAAUUUUUUUAAACCCCCAAACCCAAAAAAGUAUUAUGUUACGCCGUUCGGAUCUGCAC	1.01
ACCAUGCAGGUGGGCAUCUUUGGGAAGUGGGAAAAGGGGGGGAUAGGGAGGGGGGUAACACUUUGGGAACAGGUGGUCCCAGGUCGUUUC	0.38
CUGUGCUACACAUCGUAUGUACCGAAUCGGGGAAAAAAAGGGAAAAAAAGGAAAAAAAGGGAAAGUAUUAUGUUACGCCGUUCGGAUCUG	0.111
CACAGACAACACGCACCCACACAGACACAGAGGGAAGGGGUUGGGAUGGGGACAGGGUGCACAGCAGGGCGGGGUAGGACCCCAGCCCUU	-0.309
UGGGAGGUGGAUUUUGUUUAUUUUUUUAGCUCAUUUCCAGGGGUGGGAAUUUUUUUUUAAUAUGUGUCAUGAAUAAAGGUGUUUUUGAAA	0.146
UAACUUUAGAGGAGGAUCUGAUGGAUAUGGCAGCGGACGUGGAUUUGGGGAUGGCUAUAAUGGGUAUGGAGGAGGACCUGGAGGUGGCAA	-0.0799
UGCUGUUAUCUGGAACUCCUACCUGUCCUGGAAGGCACAUCGGCUCUAAGCCUGCCUCACUCCAUCGUUUCCACCUUGCAGUGAUGCAGC	-1.65
UUGCGCCUGUCCCGGGUGAAGUGUGUCGGCCUCUCCGCACGCACCACGGAGACCAGCAGUGCAGUCAUGUGCCUGGACCUUGCAGCUUCC	0.0303
AGUCCUGUGCUACACAUCGUAUGUACCGAAUCGGGGUGGGGUGGGGAAAAAAAGGGGAAAGUAUUAUGUUACGCCGUUCGGAUCUGCACU	0.141

Series 6
Target: Histone acetyltransferase KAT6A, winged helix 2, GST fusion (KAT6A, Homo sapiens, UniProt Q92794, residues 85-181)
Technique: protein binding microarray
Molecule type: double-stranded DNA, one strand shown
Sample: in vitro
Tested at: not given
Setting: 8-mer, flanks averaged, mean of 2 arrays, mostly near background
Reference: not given
Direction: higher = stronger binding
Residues (chain): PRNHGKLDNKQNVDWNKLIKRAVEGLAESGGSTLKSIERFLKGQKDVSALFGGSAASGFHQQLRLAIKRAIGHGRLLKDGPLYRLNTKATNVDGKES
Strand	E-score
AAAGTAAT	0.0117
CCCAACAG	0.0494
AAAGGGAC	0.0519
CGTCGTAC	-0.077
AGGGCATG	0.0478
CATCGAGC	0.0663
CATCGCGG	0.21
CGTCTAAA	-0.123
CCCCTCAA	0.0982
AGCCTACT	-0.0741
GGTATATA	0.00411
AGGCCTCG	-0.132
ATCCCACC	0.0476
CGGTGCTA	0.0495
CCAAGGTA	-0.0571
AGTATACT	-0.0504
AACCGGCG	0.144
AAGATAGC	-0.0531
TAAACTGA	-0.00615
ATCTCCGC	0.136
AGATTGGC	-0.147
